Measurements pooled from the literature.
Each numbered part is a random draw from the data of one study; scales do not carry over between parts.

Set 1
Target: Interferon regulatory factor 7, full length, phosphomimetic (IRF7, Homo sapiens, UniProt Q92985, residues 1-503, S471D/S472D/S475D/S476D/S477D/S483D/S484D/S487D)
Technique: protein-binding microarray
Molecule type: double-stranded DNA, one strand shown
Matrix: in vitro
Concentration: 2200 nM top
Setting: 60-bp whole probe
Together with: salmon DNA 0.4 mg/ml
Baseline: random background probes
Direction: higher = stronger binding
Constant ends, left off below: GCCTAGCAC … GTCTTGATTCGCTTGACGCTGCTG
Residues (chain): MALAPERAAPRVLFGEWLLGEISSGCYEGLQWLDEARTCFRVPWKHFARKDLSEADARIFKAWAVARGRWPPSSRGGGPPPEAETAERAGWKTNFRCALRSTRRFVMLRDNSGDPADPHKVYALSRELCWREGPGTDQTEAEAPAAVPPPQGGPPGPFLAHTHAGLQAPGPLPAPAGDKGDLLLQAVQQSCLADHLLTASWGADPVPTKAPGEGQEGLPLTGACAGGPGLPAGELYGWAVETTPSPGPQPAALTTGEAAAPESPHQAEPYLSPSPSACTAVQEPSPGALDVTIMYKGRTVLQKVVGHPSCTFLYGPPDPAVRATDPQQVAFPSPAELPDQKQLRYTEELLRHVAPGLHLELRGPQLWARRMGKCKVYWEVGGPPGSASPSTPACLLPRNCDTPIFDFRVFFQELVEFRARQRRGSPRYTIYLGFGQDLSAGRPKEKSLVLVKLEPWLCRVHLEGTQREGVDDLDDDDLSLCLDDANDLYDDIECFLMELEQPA
Oligonucleotide	fitted relative affinity [z-score]
CTTTCTATGTCTGTTTTTGCGTGCTAG	2.74
GACGATTTCGGGTTTCGATACGTGCTA	5.82
TCAGTTCTTAGCTTGGGACTGTGCTAG	0.869
TTAGGTTTCGGTTACGGTTAGTGCTAG	7.16
GACGATCTCAGTATCGCGACGTGCTAG	0.31

Set 2
Target: Fragile X messenger ribonucleoprotein 1, C-terminal low-complexity region (Fmr1, Mus musculus, UniProt P35922)
Technique: RNA Bind-n-Seq
Molecule type: RNA
Matrix: in vitro
Concentration: 200 nM
Setting: whole 134-nt RNA, ends assumed
Together with: 150 mM KCl
Baseline: input library
Direction: higher = stronger binding
Oligonucleotide	log2 enrichment
GGGAGUUCUACAGUCCGACGAUCUCAAGUCCUGUGCUACACAUCGUAUGUACCGAAUCGGGAGGGUUUUUGGGUGGGAAAGUAUUAUGUUACGCCGUUCGGAUCUGCACUUCCUGGAAUUCUCGGGUGUCAAGG	1.03
GGGAGUUCUACAGUCCGACGAUCUGGGAGGUGGAUUUUGUUUAUUUUUUUAGCUCAUUUCCAGGGGUGGGGAUUUUUUUUUAAUAUGUGUCAUGAAUAAAGUUGUUUUUGAAAUGGAAUUCUCGGGUGUCAAGG	0.515
GGGAGUUCUACAGUCCGACGAUCUAAUUUUAGAGGAGGAUCUGAUGGAUAUGGCAGUGGACGUGGAUUUGGGGAUGGCUAUAAUGGGUAUGGAGGAGGACCUGGAGGUGGCAAUGGAAUUCUCGGGUGUCAAGG	0.246
GGGAGUUCUACAGUCCGACGAUCAGUCCUGUGCUACACAUCGUAUGUACCGAAUCGGGGUUUUGGGUUUUGGGGUUUUGGAAAGUAUUAUGUUACGCCGUUCGGAUCUGCACUUGGAAUUCUCGGGUGUCAAGG	0.101

Set 3
Target: Centromere-binding protein 1, full length, N-terminal tag (CBF1, Saccharomyces cerevisiae, UniProt P17106, residues 1-351)
Chain of UniProt P17106 (whole entry, looked up): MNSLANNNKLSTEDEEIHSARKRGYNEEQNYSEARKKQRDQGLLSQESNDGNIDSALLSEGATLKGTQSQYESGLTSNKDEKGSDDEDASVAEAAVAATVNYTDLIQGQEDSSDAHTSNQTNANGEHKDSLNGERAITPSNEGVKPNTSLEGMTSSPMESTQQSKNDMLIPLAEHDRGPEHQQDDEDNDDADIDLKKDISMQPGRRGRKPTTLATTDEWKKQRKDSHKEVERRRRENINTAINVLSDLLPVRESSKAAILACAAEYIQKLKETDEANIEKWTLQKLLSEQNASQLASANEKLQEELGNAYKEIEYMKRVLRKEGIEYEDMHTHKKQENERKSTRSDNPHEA
Technique: protein-binding microarray
Molecule type: double-stranded DNA, one strand shown
Matrix: in vitro
Concentration: 0.8 µM
Setting: whole 60-bp probe, no competitor
Direction: higher = stronger binding
Constant ends, left off below: … GTCTTGATTCGCTTGACGCTGCTG
Oligonucleotide	fluorescence intensity
GAAAGAAAGCCTTACAGGGTGACACTCAATTTGTAG	510 a.u.
CTATCAGGATTTATTTTCATGATGTATGGGTGTTTC	538 a.u.
CTACCCCTATCCCGTCATCAGAGGGGCTAAAGATTC	490 a.u.
CCTAACTACTATAGTGATGCGCTATAGCTTCGTACA	522 a.u.
CTAATTGGGCGTTAGCAGGTGGTGCCAGTGGATTTC	529 a.u.
GAATGGGGACGTCGTTCACGTGCAAAAGTCGCCTAG	5560 a.u.

Mixed results
Molecule	target	test	test system	setting	scale	endpoint	value
PhoQ, residues 284 288 289 292 302 303 TAVSDG	PhoP, residues 12 14 15 18 19 SEGLL (Escherichia coli, UniProt P23836)	Sort-seq, item: YFP reporter	E. coli	PhoQ-PhoP variant library, together with: 10 µM Mg2+	baseline: high Mg2+ state, higher = stronger signaling	fold induction	7.53

Some of these lines once more (set 3):
Oligonucleotide	fluorescence intensity
CTAATTGGGCGTTAGCAGGTGGTGCCAGTGGATTTC	529 a.u.
